Published values pooled from the literature.
A part holds a random share of what one study measured. Several values in a cell are separate wells, animals, samples, runs or records.

Sample 1 — cell line: U-87 MG; tested at: concentration not given; reference: DMSO
Compound: CCN1/C(=C/C=C2\CCCC(/C=C/C3=[N+](CC)c4ccccc4C3(C)C)=C2NCCCCCCCCN2CCC(Nc3nc4ccccc4n3Cc3ccc(F)cc3)CC2)C(C)(C)c2ccccc21
assay	log2 fold change
refers to: ATG101 mRNA	1.03
refers to: ZNF608 mRNA	-1.73
refers to: ZNF484 mRNA	1.18
refers to: CDCA5 mRNA	-1.54
refers to: WFDC3 mRNA	-1.53
refers to: ELOVL7 mRNA	1.39
refers to: SLC38A4 mRNA	-3.44
refers to: CMKLR1 mRNA	-2.83
refers to: EPHA2 mRNA	-2.21
refers to: TMEM263 mRNA	1.01
refers to: LPCAT4 mRNA	-1.2
refers to: DUSP5 mRNA	2.6
refers to: AHNAK2 mRNA	-0.869
refers to: DNAJB6 mRNA	0.82
refers to: FICD mRNA	1.69

Sample 2 — cell line: HCC1569; method: in-cell western; refers to: CDK1 phospho-Thr14; time: 24 h
Structure (SMILES)	IC50 [nM]
Cc1ccc(O)c(C)c1-c1cnc2[nH]c(-c3cnc(N4CCC(CN5CCN(c6ccc7c(c6F)CN(C6CCC(=O)NC6=O)C7=O)CC5)CC4)nc3)cc2c1C#N (stereo not shown)	87
Cc1ncc(-c2cc3c(C#N)c(-c4c(C)ccc(O)c4C)cnc3[nH]2)cn1	96
Cc1ccc(O)c(C)c1-c1cnc2[nH]c(-c3cnc(N4CCC(CN5CCC(c6ccc(NC7CCC(=O)NC7=O)cc6F)CC5)CC4)nc3)cc2c1C#N (stereo not shown)	56
Cc1ccc(O)c(C)c1-c1cnc2[nH]c(-c3cnc(N4CCC(CCN5CCN(c6ccc(NC7CCC(=O)NC7=O)cc6F)CC5)CC4)nc3)cc2c1C#N (stereo not shown)	17
Cc1ccc(O)c(C)c1-c1cnc2[nH]c(-c3cnc(N4CCC(CN5CCN(c6c(F)cc(NC7CCC(=O)NC7=O)cc6F)CC5)CC4)nc3)cc2c1C#N (racemic)	49
Cc1ccc(O)c(C)c1-c1cnc2[nH]c(-c3cnc(N4CCC(CN5CCN(c6ccc7c(c6)CN(C6CCC(=O)NC6=O)C7=O)CC5)CC4)nc3)cc2c1C#N (stereo not shown)	52
Cc1ccc(O)c(C)c1-c1cnc2[nH]c(-c3cnc(N4CCC(CN5CCN(c6ccc(NC7CCC(=O)NC7=O)c(F)c6)CC5)CC4)nc3)cc2c1C#N (racemic)	74

Sample 3 — cell line: L444P/L444P Gaucher fibroblasts; method: 4-MUG hydrolysis in lysate; tested at: 0.1 µM; time: 72 h; reference: vehicle
Compound	enzyme activity
Ic1ccc(Nc2nc(NCCN3CCCCC3)nc(N3CCOCC3)n2)cc1	101%
Ic1ccc(Nc2nc(NCCN3CCOCC3)nc(NC3CCCCC3)n2)cc1	97%
c1ccc(Nc2nc(NCCN3CCOCC3)nc(N3CCOCC3)n2)cc1	97%
CCOc1ccc2nc(Sc3nc(N4CCOCC4)nc(N4CCOCC4)n3)sc2c1	102%
CCOc1ccc2nc(Sc3nc(Nc4ccc(OC)cc4)nc(N4CCOCC4)n3)sc2c1	103%
Ic1ccc(Nc2nc(N3CCOCC3)nc(N3CCOCC3)n2)cc1	114%
CCOc1ccc2nc(Sc3nc(Nc4ccc(I)cc4)nc(N4CCOCC4)n3)sc2c1	102% and 101% and 106% and 100%
Ic1ccc(Nc2nc(NCCN3CCOCC3)nc(N3CC4CCC(C3)O4)n2)cc1	105%
CCN(CC)c1nc(NCCN2CCOCC2)nc(Nc2ccc(I)cc2)n1	95%
Ic1ccc(Nc2nc(NCCN3CCOCC3)nc(N3CCCCC3)n2)cc1	99%

Sample 4
SMILES: Cc1ccc2c(c1)OC(O)(C(=O)O)C(=O)N2Cc1ccccc1 (stereo not shown)
organism	assay	test system	conditions	how to read	inhibition
Arabidopsis thaliana	hypocotyl length	Col-0	100 µg/mL, 7 days, seed germination, dark		47.9%
Arabidopsis thaliana	hypocotyl length	Col-0	12.5 µg/mL, 7 days, seed germination, dark		2.9%
Glycine max	fresh weight		soil surface spray, 150 g ai/ha, 21 days, pre-emergence crop safety		19.4% and 21.3% and 19.9%
Arabidopsis thaliana	root length	Col-0, seedlings	25 µg/mL	reference: water control	16.8%
Amaranthus retroflexus	fresh weight		150 g ai/ha, post-emergence treatment		52.1% and 50.9% and 51.7%
Arabidopsis thaliana	root length	Col-0, seedlings	50 µg/mL		29.4%
Arabidopsis thaliana	hypocotyl length	Col-0	25.0 µg/mL, 7 days, seed germination, dark		12.9%
Arabidopsis thaliana	root length	Col-0, seedlings	6.25 µg/mL	reference: water control	12.4%
Arabidopsis thaliana	root length	Col-0, seedlings	25 µg/mL		16.8%
Arabidopsis thaliana	hypocotyl length	Col-0, seedlings	100 µg/mL		47.9%
Arabidopsis thaliana	root length	Col-0, seedlings	50 µg/mL	reference: water control	29.4%
Avena fatua	fresh weight		150 g ai/ha, pre-emergence treatment		40.9% and 41.2% and 38.8%
Arabidopsis thaliana	root length	Col-0, seedlings	3.125 µg/mL		10.2%
Arabidopsis thaliana	hypocotyl length	Col-0, seedlings	12.5 µg/mL		2.87%

For quick reference, copied from above (sample 4):
organism	assay	test system	conditions	how to read	inhibition
Amaranthus retroflexus	fresh weight		150 g ai/ha, post-emergence treatment		52.1% and 50.9% and 51.7%
Arabidopsis thaliana	root length	Col-0, seedlings	50 µg/mL		29.4%
Arabidopsis thaliana	hypocotyl length	Col-0	25.0 µg/mL, 7 days, seed germination, dark		12.9%
Arabidopsis thaliana	root length	Col-0, seedlings	6.25 µg/mL	reference: water control	12.4%
Arabidopsis thaliana	root length	Col-0, seedlings	25 µg/mL		16.8%
Arabidopsis thaliana	hypocotyl length	Col-0, seedlings	100 µg/mL		47.9%
Arabidopsis thaliana	root length	Col-0, seedlings	50 µg/mL	reference: water control	29.4%
Avena fatua	fresh weight		150 g ai/ha, pre-emergence treatment		40.9% and 41.2% and 38.8%
